Measured values collected from several papers.
Each numbered part is a random draw from the data of one study; scales do not carry over between parts.
UniProt Q13523, sequence (whole entry, looked up): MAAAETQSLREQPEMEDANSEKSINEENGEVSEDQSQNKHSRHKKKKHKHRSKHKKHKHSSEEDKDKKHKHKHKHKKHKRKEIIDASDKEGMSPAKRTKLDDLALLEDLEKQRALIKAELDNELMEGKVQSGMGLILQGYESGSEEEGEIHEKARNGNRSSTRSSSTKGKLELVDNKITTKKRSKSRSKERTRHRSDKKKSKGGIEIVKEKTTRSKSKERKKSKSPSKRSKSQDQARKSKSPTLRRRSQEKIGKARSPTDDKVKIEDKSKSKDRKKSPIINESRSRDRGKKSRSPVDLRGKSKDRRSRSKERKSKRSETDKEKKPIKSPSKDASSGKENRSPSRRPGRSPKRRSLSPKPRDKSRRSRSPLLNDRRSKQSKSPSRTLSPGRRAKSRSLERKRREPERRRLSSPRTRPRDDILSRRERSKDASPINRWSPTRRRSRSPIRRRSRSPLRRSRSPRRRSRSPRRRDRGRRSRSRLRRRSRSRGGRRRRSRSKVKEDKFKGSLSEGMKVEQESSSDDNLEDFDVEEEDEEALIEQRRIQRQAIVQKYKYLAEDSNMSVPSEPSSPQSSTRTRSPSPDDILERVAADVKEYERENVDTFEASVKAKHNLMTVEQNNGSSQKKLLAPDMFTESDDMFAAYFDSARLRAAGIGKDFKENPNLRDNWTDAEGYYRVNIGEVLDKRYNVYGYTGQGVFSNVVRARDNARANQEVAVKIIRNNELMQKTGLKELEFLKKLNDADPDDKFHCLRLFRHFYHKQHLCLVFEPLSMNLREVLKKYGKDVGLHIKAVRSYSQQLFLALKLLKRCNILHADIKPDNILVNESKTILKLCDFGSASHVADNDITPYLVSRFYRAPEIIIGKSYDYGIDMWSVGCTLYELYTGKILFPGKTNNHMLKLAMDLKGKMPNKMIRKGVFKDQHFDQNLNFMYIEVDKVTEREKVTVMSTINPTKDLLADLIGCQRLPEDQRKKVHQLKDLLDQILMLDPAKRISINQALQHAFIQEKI
UniProt P42336, sequence (whole entry, unmodified, looked up): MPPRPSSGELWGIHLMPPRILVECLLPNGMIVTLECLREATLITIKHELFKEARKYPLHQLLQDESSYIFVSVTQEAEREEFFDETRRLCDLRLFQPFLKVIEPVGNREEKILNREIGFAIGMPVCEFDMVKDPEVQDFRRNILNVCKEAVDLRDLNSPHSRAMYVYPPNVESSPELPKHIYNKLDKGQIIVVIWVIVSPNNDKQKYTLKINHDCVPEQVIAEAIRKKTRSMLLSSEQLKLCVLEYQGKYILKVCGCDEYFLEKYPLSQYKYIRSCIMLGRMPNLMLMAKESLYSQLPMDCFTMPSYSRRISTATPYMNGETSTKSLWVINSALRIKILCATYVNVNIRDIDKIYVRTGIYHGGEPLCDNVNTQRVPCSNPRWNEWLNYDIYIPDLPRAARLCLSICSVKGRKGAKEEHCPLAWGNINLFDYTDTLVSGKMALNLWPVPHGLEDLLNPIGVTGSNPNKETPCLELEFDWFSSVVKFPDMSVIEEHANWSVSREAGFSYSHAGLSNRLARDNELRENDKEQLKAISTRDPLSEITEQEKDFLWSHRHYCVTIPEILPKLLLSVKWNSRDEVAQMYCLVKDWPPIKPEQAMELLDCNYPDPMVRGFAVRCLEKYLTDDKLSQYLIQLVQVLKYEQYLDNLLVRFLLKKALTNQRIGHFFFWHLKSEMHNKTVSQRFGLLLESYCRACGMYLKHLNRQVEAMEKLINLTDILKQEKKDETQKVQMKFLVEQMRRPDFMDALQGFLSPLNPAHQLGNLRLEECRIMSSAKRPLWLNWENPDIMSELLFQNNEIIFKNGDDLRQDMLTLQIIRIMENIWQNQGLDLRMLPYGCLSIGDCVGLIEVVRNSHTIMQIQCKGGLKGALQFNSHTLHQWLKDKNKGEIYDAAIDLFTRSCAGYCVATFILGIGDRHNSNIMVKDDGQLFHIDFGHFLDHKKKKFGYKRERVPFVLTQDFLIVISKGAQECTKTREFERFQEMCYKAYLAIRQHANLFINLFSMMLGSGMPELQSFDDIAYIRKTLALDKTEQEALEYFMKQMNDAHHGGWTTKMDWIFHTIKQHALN
UniProt P11309, sequence (whole entry, looked up): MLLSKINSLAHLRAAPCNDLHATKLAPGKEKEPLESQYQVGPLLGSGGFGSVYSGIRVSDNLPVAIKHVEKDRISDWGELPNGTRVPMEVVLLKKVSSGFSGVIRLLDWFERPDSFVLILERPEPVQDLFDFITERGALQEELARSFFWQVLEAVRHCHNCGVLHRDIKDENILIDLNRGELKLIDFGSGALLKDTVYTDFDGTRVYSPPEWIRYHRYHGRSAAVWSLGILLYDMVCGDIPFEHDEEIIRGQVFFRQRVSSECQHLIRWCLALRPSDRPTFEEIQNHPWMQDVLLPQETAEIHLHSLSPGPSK
UniProt Q9Y6E0, sequence (whole entry, looked up): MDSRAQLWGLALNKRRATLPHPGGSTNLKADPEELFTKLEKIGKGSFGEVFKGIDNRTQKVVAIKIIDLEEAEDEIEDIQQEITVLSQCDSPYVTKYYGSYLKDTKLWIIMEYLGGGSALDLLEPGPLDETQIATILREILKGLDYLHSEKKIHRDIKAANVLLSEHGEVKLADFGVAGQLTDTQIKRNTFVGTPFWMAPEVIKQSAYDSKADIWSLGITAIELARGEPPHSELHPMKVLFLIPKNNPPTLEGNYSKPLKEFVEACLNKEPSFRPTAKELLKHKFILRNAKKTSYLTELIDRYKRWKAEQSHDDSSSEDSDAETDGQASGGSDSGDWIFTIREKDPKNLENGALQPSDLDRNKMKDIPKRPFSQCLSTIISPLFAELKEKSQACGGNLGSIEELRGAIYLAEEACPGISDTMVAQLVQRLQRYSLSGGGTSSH
UniProt P23458, sequence (whole entry, looked up): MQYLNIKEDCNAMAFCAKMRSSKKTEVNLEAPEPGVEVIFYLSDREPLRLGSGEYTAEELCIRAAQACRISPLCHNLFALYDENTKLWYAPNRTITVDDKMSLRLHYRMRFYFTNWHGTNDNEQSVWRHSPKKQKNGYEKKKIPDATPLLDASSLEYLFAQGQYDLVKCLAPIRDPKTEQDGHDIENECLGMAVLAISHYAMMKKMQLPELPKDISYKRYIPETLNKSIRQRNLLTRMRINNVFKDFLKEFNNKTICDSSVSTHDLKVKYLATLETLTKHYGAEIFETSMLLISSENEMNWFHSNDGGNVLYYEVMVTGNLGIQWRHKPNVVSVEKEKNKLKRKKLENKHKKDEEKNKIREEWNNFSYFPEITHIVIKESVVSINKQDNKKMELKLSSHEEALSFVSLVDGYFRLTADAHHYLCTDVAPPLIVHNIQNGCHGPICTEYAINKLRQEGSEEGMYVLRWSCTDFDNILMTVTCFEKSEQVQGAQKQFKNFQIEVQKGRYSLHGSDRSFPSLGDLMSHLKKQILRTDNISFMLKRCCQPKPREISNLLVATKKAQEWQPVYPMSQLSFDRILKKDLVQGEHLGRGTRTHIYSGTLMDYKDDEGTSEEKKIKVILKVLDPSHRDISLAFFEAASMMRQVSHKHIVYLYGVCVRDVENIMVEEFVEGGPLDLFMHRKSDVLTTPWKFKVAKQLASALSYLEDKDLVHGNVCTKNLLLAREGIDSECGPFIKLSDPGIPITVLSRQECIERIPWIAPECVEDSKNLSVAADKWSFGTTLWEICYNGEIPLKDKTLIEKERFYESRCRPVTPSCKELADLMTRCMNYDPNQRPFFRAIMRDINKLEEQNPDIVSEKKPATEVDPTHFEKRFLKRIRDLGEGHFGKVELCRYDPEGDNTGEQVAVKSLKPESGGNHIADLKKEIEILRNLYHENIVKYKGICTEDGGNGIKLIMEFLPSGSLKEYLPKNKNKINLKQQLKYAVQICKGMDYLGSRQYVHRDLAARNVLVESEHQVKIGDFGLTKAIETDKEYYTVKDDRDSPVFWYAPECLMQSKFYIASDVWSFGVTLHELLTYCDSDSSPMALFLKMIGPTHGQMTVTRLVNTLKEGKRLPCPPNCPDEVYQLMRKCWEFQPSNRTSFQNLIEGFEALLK

Block 1
Target: Phosphate system positive regulatory protein PHO4, full length, GST-tagged (PHO4, Saccharomyces cerevisiae, UniProt P07270, residues 1-312)
Technique: competition protein-binding microarray
Form: double-stranded DNA, one strand shown
Medium: in vitro
Tested at: 2 µM
Notes: whole 60-bp probe, lowest competitor level
With: Cbf1 competitor, 0.05 µM
Direction: higher = stronger binding
Construct (chain): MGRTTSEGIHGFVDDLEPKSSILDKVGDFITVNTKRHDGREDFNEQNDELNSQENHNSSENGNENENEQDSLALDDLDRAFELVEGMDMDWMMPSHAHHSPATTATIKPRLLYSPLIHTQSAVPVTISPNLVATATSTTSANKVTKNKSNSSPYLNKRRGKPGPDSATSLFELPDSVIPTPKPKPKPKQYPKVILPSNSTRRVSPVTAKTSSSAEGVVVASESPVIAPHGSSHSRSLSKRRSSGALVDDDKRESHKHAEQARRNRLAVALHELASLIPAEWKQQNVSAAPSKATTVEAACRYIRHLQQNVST
`CAATAGGGGAAAGCATTCGTGATGGAGACGTATATAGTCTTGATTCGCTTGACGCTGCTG` gave a fluorescence intensity of 4190 a.u.
`CAGGGGGACTCATCTCTCGTGAAGATCCAGGCTATGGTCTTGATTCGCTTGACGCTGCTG` gave a fluorescence intensity of 3540 a.u.
`TTTTAAGCCGCAATACGCGTGCGGACTTTTCACTGGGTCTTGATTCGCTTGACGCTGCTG` gave a fluorescence intensity of 9350 a.u.
The fluorescence intensity of `GCAAGTCGACACAGCAACGTGTGGATAATGGATGAGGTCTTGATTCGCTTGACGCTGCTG` is reported as 11500 a.u.
`CATACCCAACCTTTTCACGTGCGGTAAGATATTTGTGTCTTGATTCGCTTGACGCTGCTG` gave a fluorescence intensity of 14200 a.u.
For `CCAACTTTTTTGGATCACATGATAAGAGTTACTATTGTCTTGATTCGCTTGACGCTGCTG`, the fluorescence intensity was 6510 a.u.
`GATCCTGAGAGGTCCCATGTGCTTTCCAATAACAGTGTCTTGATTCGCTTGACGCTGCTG` gave a fluorescence intensity of 11300 a.u.
The fluorescence intensity of `GCCGGATCCCGGAATAGCGTGATGGTCTACTCCTGTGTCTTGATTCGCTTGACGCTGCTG` is reported as 4610 a.u.

Block 2
Target: Platelet-derived growth factor receptor alpha (PDGFRA, Homo sapiens, UniProt P16234)
UniProt P16234, sequence (whole entry, looked up): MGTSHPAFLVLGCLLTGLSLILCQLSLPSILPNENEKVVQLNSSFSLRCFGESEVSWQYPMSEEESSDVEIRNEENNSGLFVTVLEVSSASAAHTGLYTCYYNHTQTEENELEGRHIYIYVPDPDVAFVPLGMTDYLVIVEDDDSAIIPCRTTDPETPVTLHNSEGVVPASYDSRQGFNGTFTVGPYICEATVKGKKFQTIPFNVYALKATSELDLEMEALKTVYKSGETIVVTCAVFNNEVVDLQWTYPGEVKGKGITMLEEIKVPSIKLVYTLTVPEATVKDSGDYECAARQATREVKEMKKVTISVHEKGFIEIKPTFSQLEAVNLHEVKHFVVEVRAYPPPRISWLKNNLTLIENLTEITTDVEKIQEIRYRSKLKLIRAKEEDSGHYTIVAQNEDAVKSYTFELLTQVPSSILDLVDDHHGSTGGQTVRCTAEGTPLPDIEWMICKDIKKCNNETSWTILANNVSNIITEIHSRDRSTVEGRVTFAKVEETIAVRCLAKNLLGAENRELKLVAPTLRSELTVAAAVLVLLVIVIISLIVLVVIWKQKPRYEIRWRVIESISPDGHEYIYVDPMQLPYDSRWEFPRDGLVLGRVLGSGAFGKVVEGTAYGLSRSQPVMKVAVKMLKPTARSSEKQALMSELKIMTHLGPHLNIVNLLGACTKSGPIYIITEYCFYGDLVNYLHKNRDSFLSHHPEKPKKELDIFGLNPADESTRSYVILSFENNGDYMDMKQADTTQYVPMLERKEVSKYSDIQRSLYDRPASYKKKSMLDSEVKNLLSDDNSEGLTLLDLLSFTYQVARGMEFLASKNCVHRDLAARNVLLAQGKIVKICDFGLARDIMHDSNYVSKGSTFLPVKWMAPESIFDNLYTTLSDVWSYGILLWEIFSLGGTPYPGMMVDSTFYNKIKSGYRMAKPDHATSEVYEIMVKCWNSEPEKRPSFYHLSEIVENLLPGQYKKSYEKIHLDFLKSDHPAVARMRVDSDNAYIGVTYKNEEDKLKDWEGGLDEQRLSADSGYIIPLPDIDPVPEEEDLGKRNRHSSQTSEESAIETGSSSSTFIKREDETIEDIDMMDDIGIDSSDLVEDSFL
Read-out: enzyme activity
Action: inhibitor
Tested at: 0.5 µM
Reference: control
`Cn1c2ccccc2c2c3c(c4c5ccccc5n(CCC#N)c4c21)CNC3=O` gave a remaining activity of 83.5%.
`Nc1ccc2ncnc(NCCc3ccc(Oc4ccccc4)cc3)c2c1` has a remaining activity of 98.5%.
`OCC(O)CCON=C1C(c2c(O)[nH]c3ccccc23)=Nc2ccccc21` (stereo not shown) gave a remaining activity of 76.7%.

Block 3
Structure (SMILES): COc1cccc(CNC(=O)c2nc3scc(COCc4ccc(C(=O)O)cc4)c3c(=O)[nH]2)c1
Read-out: cell-free assay
Technique: competition with immobilised ligand
Tested at: 1 µM
The remaining binding was 91.4% (Epidermal growth factor receptor (EGFR, Homo sapiens, UniProt P00533, G719C)).
For Serine/threonine-protein kinase PRP4 homolog (PRPF4B, Homo sapiens, UniProt Q13523): remaining binding read 97.3%.
For Mitogen-activated protein kinase kinase kinase 7 (MAP3K7, Homo sapiens, UniProt O43318): remaining binding read 60.2%.
The remaining binding was 97.2% (Casein kinase I isoform gamma-2 (CSNK1G2, Homo sapiens, UniProt P78368)).
The remaining binding was 100% (Tyrosine-protein kinase SYK (SYK, Homo sapiens, UniProt P43405)).
The remaining binding was 100% (Serine/threonine-protein kinase pim-1 (PIM1, Homo sapiens, UniProt P11309)).
Phosphatidylinositol 4,5-bisphosphate 3-kinase catalytic subunit alpha isoform (PIK3CA, Homo sapiens, UniProt P42336, E545K) — remaining binding: 86.3%.
For Serine/threonine-protein kinase 24 (STK24, Homo sapiens, UniProt Q9Y6E0): remaining binding read 100%.
It gave 76% for remaining binding (Tyrosine-protein kinase JAK1, JH2 (JAK1, Homo sapiens, UniProt P23458)).

Block 4
Target: Interferon regulatory factor 5, full length, phosphomimetic (IRF5, Homo sapiens, UniProt Q13568-2, residues 1-514, K96S/S451D/S453D/S456D/S462D)
Technique: protein-binding microarray
Form: double-stranded DNA, one strand shown
Medium: in vitro
Tested at: 250 nM
Notes: 60-bp whole probe
With: salmon DNA 0.4 mg/ml
Reference: random background probes
Direction: higher = stronger binding
Shared flanks, not repeated: GCCTAGCAC … GTCTTGATTCGCTTGACGCTGCTG
With `TTAGGTATCGAAACTGGGTTAGTGCTA` the log fluorescence was 6.64 z-score.
`GCCGAACTGAGTATCGAGACGTGCTAG` has a log fluorescence of 1.74 z-score.
The log fluorescence of `TCACACATATAATTTTGTACTGTGCTA` is reported as 0.792 z-score.
With `TCATGTTTCCATCTCTCACTGTGCTAG` the log fluorescence was 1.39 z-score.
`TTAGGTCTCGGTCTAGGTTAGTGCTAG` has a log fluorescence of 0.387 z-score.
With `GACGGACTGGACTATCGAGACGTGCTA` the log fluorescence was 0.82 z-score.
`TTAGATCTCGGTATCGGTTAGTGCTAG` has a log fluorescence of 5.62 z-score.
`TTACAACTGGGGTTTCGATTAGTGCTA` has a log fluorescence of 6.01 z-score.

A few entries again (block 3):
The remaining binding was 91.4% (Epidermal growth factor receptor (EGFR, Homo sapiens, UniProt P00533, G719C)).
For Serine/threonine-protein kinase PRP4 homolog (PRPF4B, Homo sapiens, UniProt Q13523): remaining binding read 97.3%.
For Mitogen-activated protein kinase kinase kinase 7 (MAP3K7, Homo sapiens, UniProt O43318): remaining binding read 60.2%.
